# Measured values of several laboratories.
# Protocols differ between the studies behind these lines. Numbers after ± are the reported error.
Compound,target,assay,test system,setting,IC50
CC=CCC(C)C(O)C1C(=O)NC(CC)C(=O)N(C)C(OCC)C(=O)N(C)C(CC(C)(C)O)C(=O)NC(C(C)C)C(=O)N(C)C(CC(C)C)C(=O)NC(C)C(=O)NC(C)C(=O)N(C)C(CC(C)C)C(=O)N(C)C(CC(C)C)C(=O)N(C)C(C(C)C)C(=O)N1C (stereo not shown),calcineurin (human),"IL-2 production, inhibitor",Jurkat,"6 h, added: anti-CD3/anti-CD28",> 1 µg/mL
COCOC[C@H]1O[C@H](O[C@H]2[C@H](O[C@@H]3O[C@H](CO)[C@@H](O[C@H]4O[C@@H](CN)[C@@H](O)[C@H](O)[C@H]4N)[C@H]3O)[C@@H](O)[C@H](N)C[C@@H]2N)[C@H](N)[C@@H](O)[C@@H]1O,Mycobacterium smegmatis ribosome wild type,"translation, cell-free luciferase synthesis",,,1.57 ± 0.42 µg/mL
C/C=C1\NC(=O)[C@H](Cc2ccccc2)NC(=O)[C@H](C(C)C)NC(=O)[C@H](Cc2ccncc2)NC(=O)[C@H](CCC(N)=O)NC(=O)[C@H](Cc2c[nH]c3ccccc23)NC(=O)[C@H]2CSC[C@@H](C(=O)N[C@@H](CO)C(=O)O)NC(=O)[C@H](CSC[C@H]3NC(=O)[C@H]([C@@H](C)CC)NC(=O)[C@H](NC(=O)[C@H](Cc4c[nH]cn4)NC(=O)[C@@H](NC(=O)[C@@H](NC(=O)CNC(=O)[C@H](CO)NC(=O)CNC(=O)CNC(=O)[C@@H](N)CCCCN)C(C)C)[C@@H](C)CC)[C@H](C)SC[C@H](NC(=O)[C@H](CCC(=O)O)NC(=O)[C@H](Cc4c[nH]cn4)NC3=O)C(=O)N[C@@H](CCCNC(=N)N)C(=O)N[C@@H](CCSC)C(=O)N[C@@H](CC(N)=O)C(=O)N2)NC1=O,"PBP1b, Escherichia coli","transglycosylation, inhibitor",,added: [14C]GlcNAc-labelled lipid II,5.4 ± 1.2 µM
COc1ccc2ccc3c(c2c1)C=[N+]1C2CCCCC2[N+]2=Cc4ccc(OCCN5CCCCC5)cc4[O][Au-]21[O]3.F[P-](F)(F)(F)(F)F (stereo not shown),Klebsiella pneumoniae glutathione reductase,"cellular enzyme activity, inhibitor","Klebsiella pneumoniae, carbapenem-resistant",4 h,2.26 µM
CCCCCCCCC(=O)NCc1ccc(O)c(OC)c1,mAb 5-3H1,"antibody binding, indirect competitive ELISA",,added: coating antigen 5-OVA,0.00546 µg/mL
COCO[C@H]1[C@H](O)[C@@H](N)[C@@H](O[C@H]2[C@H](O[C@@H]3O[C@H](CO)[C@@H](O[C@H]4O[C@@H](CN)[C@@H](O)[C@H](O)[C@H]4N)[C@H]3O)[C@@H](O)[C@H](N)C[C@@H]2N)O[C@@H]1CO,Mycobacterium smegmatis ribosome wild type,"translation, cell-free luciferase synthesis",,,0.2 ± 0.03 µg/mL
C/C=C1\NC(=O)[C@H](Cc2ccccc2)NC(=O)[C@H](C(C)C)NC(=O)[C@H](Cc2ccncc2)NC(=O)[C@H](CCC(N)=O)NC(=O)[C@H](Cc2ccc3ccccc3c2)NC(=O)[C@H]2CSC[C@@H](C(=O)N[C@@H](CO)C(=O)O)NC(=O)[C@H](CSC[C@H]3NC(=O)[C@H]([C@@H](C)CC)NC(=O)[C@H](NC(=O)[C@H](Cc4c[nH]cn4)NC(=O)[C@@H](NC(=O)[C@@H](NC(=O)CNC(=O)[C@H](CO)NC(=O)CNC(=O)CNC(=O)[C@@H](N)CCCCN)C(C)C)[C@@H](C)CC)[C@H](C)SC[C@H](NC(=O)[C@H](CCC(=O)O)NC(=O)[C@H](Cc4c[nH]cn4)NC3=O)C(=O)N[C@@H](CCCNC(=N)N)C(=O)N[C@@H](CCSC)C(=O)N[C@@H](CC(N)=O)C(=O)N2)NC1=O,"PBP1b, Escherichia coli","transglycosylation, inhibitor",,added: [14C]GlcNAc-labelled lipid II,105 ± 34 µM
COc1ccc2ccc3c(c2c1)C=[N+]1C2CCCCC2[N+]2=Cc4cccc(OC)c4[O][Au-]21[O]3.F[P-](F)(F)(F)(F)F (stereo not shown),Klebsiella pneumoniae glutathione reductase,inhibitor,carbapenem-resistant,added: GSSG and NADPH,11.6 µM
C/C=C1\NC(=O)[C@H](Cc2ccccc2)NC(=O)[C@H](C(C)C)NC(=O)[C@H](Cc2c[nH]cn2)NC(=O)[C@H](CCC(N)=O)NC(=O)[C@H](Cc2ccc3ccccc3c2)NC(=O)[C@H]2CSC[C@@H](C(=O)N[C@@H](CO)C(=O)O)NC(=O)[C@H](CSC[C@H]3NC(=O)[C@H]([C@@H](C)CC)NC(=O)[C@H](NC(=O)[C@H](Cc4c[nH]cn4)NC(=O)[C@@H](NC(=O)[C@@H](NC(=O)CNC(=O)[C@H](CO)NC(=O)CNC(=O)CNC(=O)[C@@H](N)CCCCN)C(C)C)[C@@H](C)CC)[C@H](C)SC[C@H](NC(=O)[C@H](CCC(=O)O)NC(=O)[C@H](Cc4c[nH]cn4)NC3=O)C(=O)N[C@@H](CCCNC(=N)N)C(=O)N[C@@H](CCSC)C(=O)N[C@@H](CC(N)=O)C(=O)N2)NC1=O,"PBP1b, Escherichia coli","transglycosylation, inhibitor",,added: [14C]GlcNAc-labelled lipid II,27 ± 5.6 µM
COCOC[C@H]1O[C@H](O[C@H]2[C@H](O[C@@H]3O[C@H](CO)[C@@H](O[C@H]4O[C@@H](CN)[C@@H](O)[C@H](O)[C@H]4N)[C@H]3O)[C@@H](O)[C@H](N)C[C@@H]2N)[C@H](N)[C@@H](O)[C@@H]1OCOC,Mycobacterium smegmatis ribosome wild type,"translation, cell-free luciferase synthesis",,,10.9 ± 0.53 µg/mL

# A few entries again:
Compound,target,assay,test system,setting,IC50
COc1ccc2ccc3c(c2c1)C=[N+]1C2CCCCC2[N+]2=Cc4cccc(OC)c4[O][Au-]21[O]3.F[P-](F)(F)(F)(F)F (stereo not shown),Klebsiella pneumoniae glutathione reductase,inhibitor,carbapenem-resistant,added: GSSG and NADPH,11.6 µM
